Assay results gathered from unrelated publications.
Compare with care: the assays were run in different laboratories. ± gives the spread as reported.
Sequence of UniProt P42680 (whole entry, looked up): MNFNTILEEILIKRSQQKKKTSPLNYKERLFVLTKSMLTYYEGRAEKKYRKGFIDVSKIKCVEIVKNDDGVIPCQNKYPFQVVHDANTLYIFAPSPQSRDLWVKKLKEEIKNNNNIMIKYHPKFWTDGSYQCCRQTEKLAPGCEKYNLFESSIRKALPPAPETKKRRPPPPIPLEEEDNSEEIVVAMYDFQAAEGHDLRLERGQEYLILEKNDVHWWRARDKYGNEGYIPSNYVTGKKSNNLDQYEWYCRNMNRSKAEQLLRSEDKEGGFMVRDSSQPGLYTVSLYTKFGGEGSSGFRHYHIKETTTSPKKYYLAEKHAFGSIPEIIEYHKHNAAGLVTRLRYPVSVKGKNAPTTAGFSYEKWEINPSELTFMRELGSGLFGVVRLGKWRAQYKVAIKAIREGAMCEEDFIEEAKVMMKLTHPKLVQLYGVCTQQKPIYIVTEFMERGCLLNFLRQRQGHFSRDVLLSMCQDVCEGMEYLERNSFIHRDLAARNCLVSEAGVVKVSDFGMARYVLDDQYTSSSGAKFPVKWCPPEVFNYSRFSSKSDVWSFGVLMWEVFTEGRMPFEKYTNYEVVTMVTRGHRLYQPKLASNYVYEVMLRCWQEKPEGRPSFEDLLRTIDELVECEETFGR
Sequence of UniProt P05177 (whole entry, looked up): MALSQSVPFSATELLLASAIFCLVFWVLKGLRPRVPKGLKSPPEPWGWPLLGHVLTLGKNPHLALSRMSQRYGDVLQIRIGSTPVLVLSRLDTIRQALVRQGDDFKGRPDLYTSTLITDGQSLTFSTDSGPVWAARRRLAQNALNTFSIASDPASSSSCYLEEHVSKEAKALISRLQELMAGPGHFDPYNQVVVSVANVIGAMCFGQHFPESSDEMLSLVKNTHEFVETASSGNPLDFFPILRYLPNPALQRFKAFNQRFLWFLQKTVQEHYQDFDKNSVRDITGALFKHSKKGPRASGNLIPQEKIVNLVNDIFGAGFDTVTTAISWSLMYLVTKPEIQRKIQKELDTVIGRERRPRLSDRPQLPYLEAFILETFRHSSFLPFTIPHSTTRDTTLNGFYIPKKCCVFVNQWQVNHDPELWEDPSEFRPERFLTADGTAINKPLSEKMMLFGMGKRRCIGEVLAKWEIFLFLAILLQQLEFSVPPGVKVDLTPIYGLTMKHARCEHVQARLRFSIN

CC[C@H](C)[C@H](NC(=O)[C@H](Cc1ccccc1)NC(=O)[C@H](CCC(=O)O)NC(=O)[C@H](CCCNC(=N)N)NC(=O)[C@H](C)NC(=O)[C@H](C)NC(=O)[C@H](CCC(N)=O)NC(=O)[C@H](CCC(=O)O)NC(=O)[C@H](CCC(=O)O)NC(=O)[C@H](CC(C)C)NC(=O)[C@H](Cc1ccc(O)cc1)NC(=O)[C@H](CO)NC(=O)[C@H](CO)NC(=O)[C@@H](NC(=O)[C@H](CC(=O)O)NC(=O)[C@H](CO)NC(=O)[C@@H](NC(=O)[C@H](Cc1ccccc1)NC(=O)[C@@H](NC(=O)CNC(=O)[C@H](CCC(=O)O)NC(=O)[C@H](C)NC(=O)CCc1c[nH]cn1)[C@@H](C)O)[C@@H](C)O)C(C)C)C(=O)N[C@@H](C)C(=O)N[C@@H](Cc1c[nH]c2ccccc12)C(=O)N[C@@H](CC(C)C)C(=O)N[C@H](C(=O)N[C@@H](CCCNC(=N)N)C(=O)NCC(=O)N[C@@H](CCCNC(=N)N)C(=O)N[C@@H](CCCCNC(=O)COCCOCCNC(=O)COCCOCCNC(=O)CC[C@H](NC(=O)CCCCCCCCCCCCCCCCC(=O)O)C(=O)O)C(=O)NCC(=O)NCC(=O)N[C@@H](CO)C(=O)N[C@@H](CCCCNc1c(NCCCCCN(O)C(=O)CCC(=O)NCCCCCN(O)C(=O)CCC(=O)NCCCCCN(O)C(C)=O)c(=O)c1=O)C(=O)O)C(C)C [zirconium-89 labelled]
tissue uptake (gamma counting; rat, stomach-duodenum; intravenous, 3 nmol/kg, 24 h): 0.47 %ID/g

CO[C@H]1C[C@@H]2CC[C@@H](C)[C@@](O)(O2)C(=O)C(=O)N2CCCC[C@H]2C(=O)O[C@H]([C@H](C)C[C@@H]2CC[C@@H](OC(=O)NCCOCCOCCOCCOCCOCCOCCOCCOCCC(=O)N3CCc4cc(Cn5nc(-c6ccc7oc(N)nc7c6)c6c(N)ncnc65)ccc4C3)[C@H](OC)C2)C[C@@H](O)[C@H](C)/C=C(\C)[C@@H](O)[C@@H](OC)C(=O)[C@H](C)C[C@H](C)/C=C/C=C/C=C/1C
abdominal pain incidence (patients with advanced solid tumours; intravenous, 12 mg weekly, grade 3 or higher): 8.3%

CC[C@@H](C)[C@@H](NC(=O)[C@@H](C)NC(=O)[C@@H](CCCNC(=N)N)NC(=O)[C@@H](CCCNC(=N)N)NC(=O)[C@@H](CCCNC(=N)N)NC(=O)[C@@H](CCCNC(=N)N)NC(=O)[C@@H](CCCNC(=N)N)NC(=O)[C@H](N)CCCNC(=N)N)C(=O)N[C@H](CO)C(=O)NCC(=O)N[C@H](CO)C(=O)N[C@H](CC(C)C)C(=O)N[C@@H](C(=O)N[C@@H](C(=O)N[C@H](CC(C)C)C(=O)N[C@H](Cc1ccccc1)C(=O)NCC(=O)N[C@H](Cc1ccc(O)cc1)C(N)=O)[C@H](C)O)C(C)C
hemolysis (human erythrocytes; 400 µM, 1 h; baseline: Triton X-100): 33%

C[C@@H](O)[C@H](NC(=O)[C@@H]1CSSC[C@H](NC(=O)[C@@H](Cc2ccccc2)NC(=O)CN2CCN(CC(=O)[O-])CCN(CC(=O)[O-])CCN(CC(=O)[O-])CC2)C(=O)N[C@@H](Cc2ccc(O)cc2)C(=O)N[C@H](Cc2c[nH]c3ccccc23)C(=O)N[C@@H](CCCCN)C(=O)N[C@@H]([C@@H](C)O)C(=O)N1)C(=O)O.[177Lu+3]
retention (MEC1; gamma counter; 60 min efflux after 2 h loading): 32%

CC(C)C[C@H](NC(=O)C[C@H](O)[C@H](CC(C)C)NC(=O)[C@H](Cc1c[nH]cn1)NC(=O)CNC(=O)[C@@H](NC(=O)[C@H](C)NC(=O)[C@H](Cc1c[nH]c2ccccc12)NC(=O)[C@H](CCC(N)=O)NC(=O)[C@@H](Cc1ccccc1)NC(=O)CCNC(=O)CCSc1nnc(NCCC(=O)NCCC(=O)NCCCC[C@H](NC(=O)N[C@@H](CCC(=O)O)C(=O)O)C(=O)O)c2c1CCC1C(CC2)C1COC(=O)NCCNC(=O)CC[C@H](C(=O)O)N1CCN(CC(=O)O)CCN(CC(=O)O)CC1)C(C)C)C(N)=O (stereo partly shown) [gallium-68 labelled]
tissue uptake (athymic NMRI nude mouse, blood; intravenous, 533 pmol, 2 h): 0.16 %ID/g

CCN(CC)C(=O)[C@@H]1C=C2c3cccc4[nH]cc(c34)C[C@H]2N(C)C1
List of Complaints score (refers to: fear of death; healthy volunteers; dose not given, 0 to 12 h; baseline: placebo, direction not given): 0

Cc1cc(C(=O)NC(C)(C)COc2cccc3c2C(N)=NS(=O)(=O)N3)cc(C)n1
revertant ratio (Salmonella typhimurium; Ames test, initial; TA1537; 5.00 µg/plate, with: rat liver S9; baseline: solvent control): 0.8

CC[C@@H](C)[C@@H](NC(=O)[C@@H](CC(C)C)NC(=O)[C@H](NC(=O)[C@H](NC(=O)[C@H](NC(=O)[C@@H](CCCNC(=N)N)NC(=O)[C@@H](CCCNC(=N)N)NC(=O)[C@@H](CCCNC(=N)N)NC(=O)[C@H](N)CCCNC(=N)N)C(C)C)[C@H](C)CC)[C@H](C)CC)C(=O)N[C@@H](C(=O)N[C@H](CC(C)C)C(=O)N[C@H](CCCNC(=N)N)C(=O)N[C@H](CCCNC(=N)N)C(=O)N[C@H](CCCNC(=N)N)C(=O)N[C@H](CCCNC(=N)N)C(=O)N[C@H](Cc1ccccc1)C(=O)N[C@H](CO)C(=O)N[C@H](C)C(=O)N[C@H](Cc1ccc(O)cc1)C(N)=O)C(C)C
hemolysis (human erythrocytes; 400 µM, 1 h; baseline: Triton X-100): 47%

[Cl-].[Cl-].[Pt+2].[Ru+2].c1ccc(-c2nccnc2-c2ccccn2)nc1.c1cnc2c(c1)ccc1cccnc12.c1cnc2c(c1)ccc1cccnc12
hatching rate (Danio rerio; embryos; 45 µM, 96 h): 30 ± 3.7%

CC[C@H](C)[C@H](NC(=O)[C@H](CCCCN)NC(=O)[C@H](CCCCN)NC(=O)[C@H](CCCCN)NC(=O)[C@H](CCCCN)NC(=O)[C@H](CCCCN)NC(=O)[C@@H](N)CCCCN)C(=O)N[C@@H](CO)C(=O)N[C@@H](Cc1ccccc1)C(=O)N[C@@H](CC(C)C)C(=O)NCC(=O)N[C@@H](CO)C(=O)N[C@@H](CCCCN)C(=O)N[C@H](C(=O)N[C@H](C(=O)N[C@H](C(=O)N[C@@H](CC(C)C)C(=O)N[C@@H](CC(C)C)C(=O)N[C@@H](CCCCN)C(=O)N[C@@H](CCCNC(=N)N)C(N)=O)C(C)C)C(C)C)C(C)C
hemolysis (human erythrocytes; 400 µM, 1 h; baseline: Triton X-100): 20%

COc1cc(Nc2ncc(F)c(Nc3ccc4c(n3)NC(=O)C(C)(C)O4)n2)cc(OC)c1OC
IC50 (CA2 (Homo sapiens, UniProt P00918)): > 10 µM

Cc1onc(-c2c(F)cccc2Cl)c1C(=O)N[C@@H]1C(=O)N2[C@@H]1SC(C)(C)[C@@H]2C(=O)O
deviation from nominal concentration (human plasma; concentration not given, 8 months, -80 °C): 13.4%

O=[N+]([O-])c1ccc(NC2CCNCC2)c(C(F)(F)F)c1
induction factor (Salmonella typhimurium; genotoxicity, SOS/umu test; TA1535/pSK1002; 0.031 mg/mL, 4 h, with S9, full range): 0.6

OCc1ncc2n1-c1ccc(Cl)cc1C(c1ccccc1F)=NC2
half-life (human, plasma; 7.5 mg midazolam, day 26, geometric mean, metabolite of midazolam, with: midazolam 7.5 mg alone): 3.3 h

O=c1ccc2ccccc2o1
chance response (NHEK; mitochondrial reserve capacity, Seahorse; concentration not given, 24 h): 55.3%

CN1CC[C@@H](c2c(O)cc(O)c3c(=O)cc(-c4ccc(C(F)(F)F)cc4Cl)oc23)[C@@H]1CO
patients with adverse event (refers to: Vomiting; B-cell malignancies or AML; oral, 50 mg, continuous dosing): 12.5%

CC(=O)N1CCC(C(=O)N2CCN3C(=O)c4cc(-c5ccccc5)ccc4NC(=O)C3C2)CC1 (stereo not shown)
revertants per plate (Salmonella typhimurium; TA100; 5.0 µg/plate, without S9): 92.5

C[C@H]1CN(c2n[nH]c3nc(N[C@H]4CC[C@H](NS(=O)(=O)CCC(F)(F)F)CC4)ncc23)CCO1
relative abundance (SYK (Homo sapiens, UniProt P43405); inhibitor, Kinobeads competition profiling; 0.8 µM; baseline: vehicle): 1.08

COc1ccc(-n2nc(C(C)=O)s/c2=N\N=C(/C)c2ccc(NC(C)=O)cc2)cc1
viability (WI-38; 0.078 µM, 24 (unit not given)): 80.2%

C[C@@H](O)[C@@H](CO)NC(=O)[C@@H](CCCNC(=N)N)NC(=O)[C@@H]1CCCN1C(=O)[C@@H]1CSSC[C@H](NC(=O)[C@H](Cc2ccccc2)NC(=O)CN2CCN(CC(=O)O)CCN(CC(=O)O)CCN(CC(=O)O)CC2)C(=O)N[C@@H](Cc2ccc(O)cc2)C(=O)N[C@@H](Cc2ccccc2)C(=O)N[C@@H](CCC(N)=O)C(=O)N[C@@H](CC(N)=O)C(=O)N1 [gallium-68 labelled]
tissue uptake (healthy Wistar rat, spleen; intravenous, 8 MBq, 30 min, individual animals): 0.3 %ID/g

COc1cccc(-c2n[nH]c(SCc3ccccn3)n2)c1OC
revertant colonies per plate (Salmonella typhimurium; Ames test, preincubation; TA1537; 0.50 mg/plate, without S9): 5

COc1cc2c(Oc3ccc4[nH]c(C)cc4c3F)ccnc2cc1OCC1(N)CC1
grade 3 Hematuria (paediatric recurrent refractory sarcoma; 12 mg): 0%

CC(C)CC(=O)OC[C@H]1O[C@@](C#N)(c2ccc3c(N)ncnn23)[C@H](O)[C@@H]1O
remaining compound (Cytochrome P450 1A2 (CYP1A2, Homo sapiens, UniProt P05177); metabolic stability; recombinant enzyme; 1 µM, 30 min): 92.9 ± 2.49%

CC[C@H](C)[C@H](NC(=O)[C@H](CC(C)C)NC(=O)[C@H](CCCCN)NC(=O)[C@H](CCCCN)NC(=O)[C@H](CCCCN)NC(=O)[C@H](CCCCN)NC(=O)[C@H](CC(C)C)NC(=O)[C@@H](NC(=O)[C@@H](NC(=O)[C@@H](NC(=O)[C@H](CC(C)C)NC(=O)[C@H](CCCNC(=N)N)NC(=O)[C@H](CO)NC(=O)[C@@H](N)CO)C(C)C)[C@@H](C)CC)[C@@H](C)CC)C(=O)N[C@@H](CO)C(=O)N[C@@H](CCCCN)C(=O)N[C@@H](CCCCN)C(=O)N[C@@H](CCCCN)C(=O)N[C@@H](CCCCN)C(N)=O
hemolysis (human erythrocytes; 400 µM, 1 h; baseline: Triton X-100): 10%

O=C(O)C[C@H](NC(=O)[C@H](CC(=O)O)NC(=O)[C@H](CC(=O)O)NC(=O)[C@H](CC(=O)O)NC(=O)[C@H](CC(=O)O)NC(=O)[C@H](CC(=O)O)NC(=O)[C@H](CC(=O)O)NC(=O)[C@H](CC(=O)O)NC(=O)[C@H](CC(=O)O)NC(=O)[C@H](CC(=O)O)NC(=O)[C@H](CC(=O)O)NC(=O)[C@H](CCCCNC(=O)c1ccc(C(=O)NCCOCCOB2BBBBBB3BBBB3B2)cc1)NC(=O)CN1CCN(CC(=O)O)CCN(CC(=O)O)CCN(CC(=O)O)CC1)C(=O)O [gallium-67 labelled]
tissue uptake (gamma counting; ddY mouse, male, 6 weeks old, kidney; intravenous, 37 kBq, 10 min): 14.2 %ID/g

CC[C@H](C)[C@H](NC(=O)[C@H](CCCNC(=N)N)NC(=O)[C@H](CCCNC(=N)N)NC(=O)[C@H](CCCNC(=N)N)NC(=O)[C@H](CCCNC(=N)N)NC(=O)[C@H](CC(C)C)NC(=O)[C@H](CCCNC(=N)N)NC(=O)[C@H](CO)NC(=O)[C@@H](N)CO)C(=O)N[C@H](C(=O)N[C@@H](CC(C)C)C(=O)N[C@@H](CCCNC(=N)N)C(=O)N[C@@H](CCCNC(=N)N)C(=O)N[C@@H](CCCNC(=N)N)C(=O)N[C@@H](CCCNC(=N)N)C(=O)N[C@@H](Cc1ccccc1)C(=O)N[C@@H](CO)C(=O)N[C@@H](C)C(=O)N[C@@H](Cc1ccc(O)cc1)C(N)=O)C(C)C
hemolysis (human erythrocytes; 400 µM, 1 h; baseline: Triton X-100): 7%

CC(C)C[C@@H]1NC(=O)[C@H](CC(C)C)NC(=O)[C@H](Cc2c[nH]c3ccccc23)NC(=O)[C@H](CO)NC(=O)[C@H](Cc2c[nH]c3ccccc23)NC(=O)[C@@H]2CCCN2C(=O)[C@H](CC(C)C)NC(=O)[C@H](Cc2c[nH]cn2)NC(=O)[C@@H]2CCCN2C(=O)[C@H](CC(N)=O)NC(=O)[C@H](C)NC(=O)[C@H](Cc2ccc(O)cc2)NC(=O)[C@H](CS)NC(=O)[C@H](CCCCNC(=O)CN2CCN(CC(=O)O)CCN(CC(=O)O)CCN(CC(=O)O)CC2)NC1=O [lutetium-177 labelled]
tissue uptake (Balb/c mouse, female, 4T1 tumour, intestine; intravenous, 3.7 MBq, 1 h): 0.34 ± 0.12 %ID

COc1ccc(N2C(=O)N(c3c(C)cccc3Cl)Cc3cnc(Nc4ccc(C5CCN(C)CC5)cc4OC)nc32)nc1
inhibition (TEC (Homo sapiens, UniProt P42680); kinase activity; 0.5 µM): 92%

For quick reference, copied from above:
CC(C)CC(=O)OC[C@H]1O[C@@](C#N)(c2ccc3c(N)ncnn23)[C@H](O)[C@@H]1O
remaining compound (Cytochrome P450 1A2 (CYP1A2, Homo sapiens, UniProt P05177); metabolic stability; recombinant enzyme; 1 µM, 30 min): 92.9 ± 2.49%
